Experimental data collected from several papers.
Lines come from different studies, so protocols differ. ± gives the spread as reported.
Organism: Plasmodium falciparum

| Compound | assay | system | setting | measurement | result |
| --- | --- | --- | --- | --- | --- |
| COc1cncc(-c2cc(F)cc(CNC(=O)c3cc(N4CC[C@@](C#N)(C5CC5)C4=O)cc(C)n3)c2)c1 | parasite growth | conditional knockdown control line | 72 h, together with: 50 nM anhydrotetracycline | IC50 | 0.38 µM |
| Cc1cc(C(=O)N[C@@H](CC(=O)NC(C)(C)C)C(=O)NCCNC(=O)c2cc(-c3ccccc3)ccn2)no1 | parasite growth | NF54 | 72 h, gametocyte | EC50 | 0.16 µM |
| CCNCC#CCNc1ccnc2cc(Cl)ccc12 | parasite growth, LDH |  |  | IC50 | 0.078 µM |
| Cc1cc(N2CCC(CO)(C3CC3)C2=O)cc(C(=O)NCc2cc(F)cc(-c3cnn(C)c3)c2)n1 (stereo not drawn) | parasite growth | cPRS conditional knockdown line | 72 h, together with: 3 nM anhydrotetracycline | IC50 | 0.01 µM |
| COc1cccc2c(-c3ccc(O)c4c3CC(C)(C)N=C4)ccc(OC(C)C)c12 | asexual parasite growth, SYBR Green I | clinical isolate SB_04, Malawi |  | IC50 | 0.4926 ± 0.0038 µM |
| CC(C)(C)NC(=O)CC(NC(=O)CCc1ccccc1)C(=O)NCCNC(=O)c1cccc(-c2ccccc2)c1 (stereo not drawn) | parasite growth, SYBR Green | 3D7 | 72 h, blood stage | EC50 | 0.0046 µM |
| COc1cc2c(c(OC)c1)C(C)=[N+](c1ccc(OC)c3c(OC)cc(C)cc13)[C@@H](C)C2 | asexual parasite proliferation, SYBR Green I fluorescence | 7G8 |  | IC50 | 0.71 ± 0.16 µM |
| Cc1cc(N2CC[C@@](C#N)(C3CC3)C2=O)cc(NC(=O)Cc2ccccc2)n1 | parasite growth | cPRS conditional knockdown line | 72 h, together with: 12.5 nM anhydrotetracycline | IC50 | 0.007 µM |
| CC1=N[C@H](C)Cc2c(-c3ccc(C)cc3)ccc(O)c21 | asexual parasite proliferation, SYBR Green I fluorescence | K1 |  | IC50 | 0.446 ± 0.083 µM |
| Cc1cc(C(=O)N[C@@H](CC(=O)NC(C)(C)C)C(=O)NCCNC(=O)c2cccc(-n3cccn3)c2)no1 | female gamete activation | NF54 | 48 h | EC50 | > 10 µM |
| COc1cc(C)c(-c2ccc(O)c3c2C[C@@H](C)N[C@@H]3C)c2cccc(O)c12 (single isomer, unassigned) | asexual parasite proliferation, SYBR Green I fluorescence | 7G8 |  | IC50 | 0.131 ± 0.027 µM |
| Cc1cc(C(=O)N[C@@H](CC(=O)NC(C)(C)C)C(=O)NCCNC(=O)c2cccc(-c3ccn[nH]3)c2)no1 | parasite growth | NF54 | 24 h, gametocyte | EC50 | 0.692 µM |

For quick reference, copied from above:
| Compound | assay | system | setting | measurement | result |
| --- | --- | --- | --- | --- | --- |
| CC(C)(C)NC(=O)CC(NC(=O)CCc1ccccc1)C(=O)NCCNC(=O)c1cccc(-c2ccccc2)c1 (stereo not drawn) | parasite growth, SYBR Green | 3D7 | 72 h, blood stage | EC50 | 0.0046 µM |
| CCNCC#CCNc1ccnc2cc(Cl)ccc12 | parasite growth, LDH |  |  | IC50 | 0.078 µM |
